Assay results gathered from unrelated publications.
Every numbered part comes from another study and shows a few of its results, in no order.

Sample 1
Target: Sal-like protein 4, full length isoform A (SALL4, Homo sapiens, UniProt Q9UJQ4, residues 1-1053)
Sequence of UniProt Q9UJQ4 (whole entry, looked up): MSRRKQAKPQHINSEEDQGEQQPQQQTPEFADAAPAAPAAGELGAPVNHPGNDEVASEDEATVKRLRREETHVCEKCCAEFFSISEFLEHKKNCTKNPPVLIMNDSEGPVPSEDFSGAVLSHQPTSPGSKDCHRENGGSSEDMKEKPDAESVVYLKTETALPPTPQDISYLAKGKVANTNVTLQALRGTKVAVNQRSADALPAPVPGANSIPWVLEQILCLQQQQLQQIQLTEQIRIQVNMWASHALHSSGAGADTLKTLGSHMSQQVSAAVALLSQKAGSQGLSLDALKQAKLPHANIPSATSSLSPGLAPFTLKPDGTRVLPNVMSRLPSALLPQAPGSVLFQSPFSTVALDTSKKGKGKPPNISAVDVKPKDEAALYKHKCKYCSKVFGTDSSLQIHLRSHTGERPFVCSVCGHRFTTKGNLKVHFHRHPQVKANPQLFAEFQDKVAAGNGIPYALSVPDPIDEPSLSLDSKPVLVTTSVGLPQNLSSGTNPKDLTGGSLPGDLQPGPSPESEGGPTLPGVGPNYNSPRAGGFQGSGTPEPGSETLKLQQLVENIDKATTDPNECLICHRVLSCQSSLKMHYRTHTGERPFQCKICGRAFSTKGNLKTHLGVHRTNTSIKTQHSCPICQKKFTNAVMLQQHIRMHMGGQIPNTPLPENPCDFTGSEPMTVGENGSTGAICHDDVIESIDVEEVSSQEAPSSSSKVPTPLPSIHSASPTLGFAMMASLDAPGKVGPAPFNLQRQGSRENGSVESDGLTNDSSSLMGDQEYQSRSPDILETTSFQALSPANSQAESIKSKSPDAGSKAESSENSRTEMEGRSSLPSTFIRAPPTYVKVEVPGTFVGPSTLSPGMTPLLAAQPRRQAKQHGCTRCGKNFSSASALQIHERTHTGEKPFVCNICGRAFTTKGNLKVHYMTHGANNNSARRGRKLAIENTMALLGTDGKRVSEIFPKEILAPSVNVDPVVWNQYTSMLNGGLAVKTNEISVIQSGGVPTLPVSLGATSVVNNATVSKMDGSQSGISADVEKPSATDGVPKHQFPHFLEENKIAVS
Technique: universal PBM
Form: double-stranded DNA, one strand shown
Medium: in vitro
Tested at: 600 nM
Notes: 8-mer, flanks averaged, mean of replicates
Direction: higher = stronger binding
For `AGCCGAGC`, the E-score was -0.404.
The E-score of `ATAATGAT` is reported as 0.352.
`CTCTGCTA` has an E-score of -0.101.
The E-score of `CCCCCGCG` is reported as -0.357.
`GTCCGATA` has an E-score of 0.0219.

Sample 2
Target: RING finger protein unkempt homolog, zinc fingers 1-6, SBP tag (UNK, Homo sapiens, UniProt Q9C0B0, residues 30-357)
Sequence of UniProt Q9C0B0 (30-357, looked up): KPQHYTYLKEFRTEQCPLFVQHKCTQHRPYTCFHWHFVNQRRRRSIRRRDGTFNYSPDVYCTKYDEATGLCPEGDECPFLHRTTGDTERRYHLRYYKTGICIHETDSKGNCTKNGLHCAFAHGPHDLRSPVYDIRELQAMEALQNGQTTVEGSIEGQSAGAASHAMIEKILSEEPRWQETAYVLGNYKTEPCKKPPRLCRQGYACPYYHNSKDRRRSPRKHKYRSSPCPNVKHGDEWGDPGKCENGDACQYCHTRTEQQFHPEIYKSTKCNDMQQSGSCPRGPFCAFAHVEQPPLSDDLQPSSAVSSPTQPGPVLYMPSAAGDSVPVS
Technique: RNA Bind-n-Seq
Form: RNA
Medium: in vitro
Tested at: 100 nM
Notes: RNA with constant flanks, vertebrate orthologous sites, ends assumed
Relative to: input RNA pool
Direction: higher = stronger binding
Constant ends, left off below: GGGAGUUCUACAGUCCGACGAUC … CAACAGAGGAUUGAGCAUCA
`CAACUCCAUGGUGGAGGGCUCAGAGCUCAAAAAGCUUCGCUCCAACUCCAGAAUUUACCACCGGUAUUUUCUCCUGGACGCUGACAUGCAGAGCCUGAGAUGGGAACCAUCCAAGAAGGA` gave a bound/input enrichment of 0.121 ratio.
`CUCCUCUUAAUCCCAUCUCAUCUGUUUCAUAGUGCUGAAAUUCCAUCUUCAGCCGUAUUUUUAGUGAACUUAUUCUAAUUCUAGAGAAACUUCCAGUGGAUACUGUGAGCUAUAUGGGGA` gave a bound/input enrichment of 1.53 ratio.
The bound/input enrichment of `UCAGGUGUCCCCAUGGGGCACUGUUGGCCCCUUAGCAUCGUUUGAUUUGUGACCUUGACAUAAUAGAUAGGCUUGUGAUUUUUUUAAUUUAAAGAUAUUAAAACUUAAUUCACUAAAAUU` is reported as 0.486 ratio.
With `GUUGGGUCAUGACCCUUACAGGUUAGGUCAUGAUGCUUAUAGGUUAGGACAAGACCCUUAUAGAUUAGGCCAUGAUCCCUACAGACUAACUCCUGAUCCCUAUAGGAUGUCACCUAGACC` the bound/input enrichment was 0.641 ratio.
For `UGGGUUACUCCUAUUAUUAUCAAGUAGCUGGAAUUGUGAAGGUCAGAGUAGUUAGAUCUUUAGCUUUUAUUCCUUAUUUUUUUGUAUUACUAUCCAUGUGUAUAAAUUAUUGAUCAUGUU`, the bound/input enrichment was 2.54 ratio.

Sample 3
Target: Histone acetyltransferase KAT6A, winged helix 2, GST fusion (KAT6A, Homo sapiens, UniProt Q92794, residues 85-181)
Technique: protein binding microarray
Form: double-stranded DNA, one strand shown
Medium: in vitro
Tested at: not given
Notes: 8-mer, flanks averaged, mean of 2 arrays, mostly near background
Relative to: not given
Direction: higher = stronger binding
Target sequence (chain): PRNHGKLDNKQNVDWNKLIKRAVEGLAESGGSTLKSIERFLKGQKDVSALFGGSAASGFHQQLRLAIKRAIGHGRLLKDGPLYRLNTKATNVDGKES
`CTCTATAA` has an E-score of -0.0658.
The E-score of `AAATCACG` is reported as 0.0562.
For `ACGTCGGC`, the E-score was -0.0592.
`CATGTAAA` gave an E-score of -0.189.
For `CGCGCAAA`, the E-score was 0.101.
`AGAAAGGA` has an E-score of 0.00643.
For `AACCGTAT`, the E-score was -0.178.

Single results of other studies
`PhoQ, residues 284 288 289 292 302 303 ALAMYF` has a fold induction of 3.58 (PhoP, residues 12 14 15 18 19 LHTVM (Escherichia coli, UniProt P23836); Sort-seq, refers to: YFP reporter; E. coli; PhoQ-PhoP variant library, together with: 10 µM Mg2+; relative to: high Mg2+ state, higher = stronger signaling).

Excerpt of the above (sample 1):
For `AGCCGAGC`, the E-score was -0.404.
The E-score of `CCCCCGCG` is reported as -0.357.
